Assay results collected from several papers.
Protocols differ between the studies behind these lines. ± gives the spread as reported.

`O=C(CCCN1CCC(O)(c2ccc(Cl)cc2)CC1)c1ccc(F)cc1` gave a QTc interval of 346 ± 0.3 ms (male Hartley guinea pig, anaesthetized; intravenous infusion, 0.1 mg/kg, 10 min infusion, post-infusion).
`FC(F)(F)c1ccc(CNc2ccc(Cc3c[nH]c4ncc(Cl)cc34)cn2)cn1` — result for “treatment-related adverse events”: 4% (item: Dyspepsia; patients with advanced solid tumours, all cohorts; oral, 1000 mg/day, any grade).
`CCO[C@H]1CCN(Cc2c(OC)cc(C)c3[nH]ccc23)[C@H](c2ccc(C(=O)O)cc2)C1`: “incidence upper respiratory infection” 0% (PNH patients, active haemolysis; oral, 50 mg, 4 weeks, treatment).
Under “treatment-emergent adverse events”, `O=C(Nc1nc2cccc(-c3ccc(CN4CCS(=O)(=O)CC4)cc3)n2n1)C1CC1` is recorded as 0% (item: hypertension; human rheumatoid arthritis patients; oral, 200 mg once daily, 4 weeks, regardless of relatedness).
For `O=S(=O)(NCC(F)(F)c1ccc(Cl)c(Cl)c1)c1cccc(Cl)c1O`, “DLS scattered light intensity” read 1.06e+06 counts/s (colloidal aggregate formation, dynamic light scattering; 50 mM potassium phosphate buffer; 200 µM, pH 7.0, 1% DMSO; higher = more aggregation).
Under “patients with adverse event”, `CNC(=O)c1ccc(-c2cnc3ncc(Cc4ccc5ncccc5c4)n3n2)cc1F` is recorded as 11% (item: Dyspnea, all grades; cancer patients; oral, 600 mg twice daily, other expansion cohort, any causality).
For `CCCC1CCC(c2ccc(-c3ccc(F)c(F)c3)cc2)CC1` (centres unmarked), the concentration was 1 ng/mL (item: compound; human pregnant women, male fetuses, cord serum; dose not given, paired maternal-cord samples, mean).
For `O=C1CN(c2ccc(NS(=O)(=O)c3cccc(Cl)c3O)cn2)CCN1`, “DLS scattered light intensity” read 1.04e+08 counts/s (colloidal aggregate formation, dynamic light scattering; 50 mM potassium phosphate buffer; 200 µM, pH 7.0, 1% DMSO; higher = more aggregation).
For `COc1ccnc(C(=O)NC(CO)C(=O)O)c1O` (racemic), “Freundlich coefficient KF” read 5.9 mL/g (soil adsorption; soil; pH 6.9, organic carbon 0.8 %).
For `Cc1nc(-c2cnc(NC(C)C)n(C)c2=O)ccc1Oc1ccnc(-c2cnn(C)c2)c1`, the half-life was 10.5 h (Beagle dog, male, plasma; oral, 30 mg/kg, crossover study, mean).
`C[C@H]1[C@H]2N(C(=O)CN(C)N2C(=O)NCc2ccccc2)[C@@H](Cc2ccc(OP(=O)(O)O)cc2)C(=O)N1Cc1cccc2cccnc12` has an AUC(0-24 h) of 3360 ng·h/mL (patients, plasma; intravenous infusion, 140 mg/m2 over 4 h, median).
`O=C(O)CCC(=O)O.[2H]C([2H])([2H])Oc1cc(C)c2[nH]ccc2c1CN1CC[C@@H](C2CC2)C[C@H]1c1ccc(C(=O)O)cc1` — result for “subjects with TEAE Appendicitis”: 0% (multiple ascending dose; healthy Chinese subjects; 200 mg once daily).
For `OC[C@H]1O[C@@H](c2ccc(Cl)c(Cc3ccc(O[C@H]4CCOC4)cc3)c2)[C@H](O)[C@@H](O)[C@@H]1O`, “change in ALT” read 1 U/L (Japanese type 1 diabetes patients, blood; 2.5 mg, day 28; reference: baseline).
With `C/C(O)=C(\C#N)C(=O)Nc1ccc(C(F)(F)F)cc1` the blood concentration was 90.7 ± 13.7 µM (CD-1 mice female, whole blood; oral, 10 mg/kg leflunomide daily, 24 h, after dose 10).
For `CC#CC(=O)N1CC[C@@H](n2c(=O)n(-c3ccc(Oc4ccccc4)cc3)c3c(N)ncnc32)C1`, the Tmax, median was 3 h (human, fasting, plasma; oral, 320 mg once daily, cycle 1 day 28).
The Tmax of `CN1C(=O)[C@@H](NC(=O)c2nnc(Cc3ccccc3)[nH]2)COc2cccnc21` is reported as 3 h (human, plasma; oral, 100 mg once daily, day 1, median).
Under “heart rate change”, `CCN1/C(=C/C(C)=O)Sc2ccc(F)cc21` is recorded as 90.9 ± 13.4% (cynomolgus monkey; oral, 30 mg/kg, 24 h post-dose; reference: pre-dose).
`C[C@H]1CN(C(=O)CC#N)[C@]12CCN(c1ncnc3[nH]ccc13)C2` has a Cmax of 619 ng/mL (healthy Japanese males, plasma; oral, 50 mg single dose).
Under “DLS scattered light intensity”, `CCn1nnc(Br)c1CNS(=O)(=O)c1cccc(Cl)c1O` is recorded as 996000 counts/s (colloidal aggregate formation, dynamic light scattering; 50 mM potassium phosphate buffer; 200 µM, pH 7.0, 1% DMSO; higher = more aggregation).
`CCOc1c([C@H](C)n2nc(C)c3c(N)ncnc32)cc(Cl)c(F)c1[C@@H]1CNC(=O)C1` has a Cmax of 1.81 µM (human, all cohorts, plasma; oral, 20 mg, day 15).
With `Oc1ccc(/C=C/c2cc(O)cc(O)c2)cc1` the r-GT level was less than 3 IU/L (rat, azoxymethane-injected, blood; in vivo, 100 mg/kg, at sacrifice).
The HC50 of `COC1/C=C/OC2(C)Oc3c(C)c(O)c4c(O)c(c5c(nc6cc(C)ccn65)c4c3C2=O)NC(=O)/C(C)=C\C=C\C(C)C(O)C(C)C(O)C(C)C(OC(C)=O)C1C` (centres unmarked) is reported as greater than 128 µg/mL (haemolysis; sheep erythrocytes; 1 h, pH 7.5).
`COc1cc2c3c(n(CCCNCCO)c(=O)c2cc1OC)-c1nc2c(cc1C3=O)OCO2` gave a Vss of 9.62 L/kg (male CD1 mouse, plasma; intravenous, 1 mg/kg).
For `CC(C)NCC(O)c1ccc(NS(C)(=O)=O)cc1` (racemic), the QTc interval was 314 ± 0.4 ms (male Hartley guinea pig, anaesthetized; intravenous, 1 mg/kg, baseline before infusion).
`CC(=O)c1cc(C(=O)N[C@@H](C)Cn2ccc(-c3ccc(C#N)c(Cl)c3)n2)[nH]n1` has an AUC(0-tlast) of 20500 ng·h/mL (human, fasted, plasma; oral tablet, 300 mg, geometric mean).
Under “fraction excreted in urine”, `C[C@@H](Oc1ccc(S(C)(=O)=O)cc1C(=O)N1C[C@@H]2C[C@]2(c2cc(C(F)(F)F)on2)C1)C(F)(F)F` is recorded as 2.71% (young healthy humans, urine; oral, 10 mg, 0 to 24 h, single dose).
`Cn1cc(Nc2nccc(-c3ccc4c(c3)CN(C3COC3)CC[C@H]4NC(=O)c3cn(C(C)(C)C)nn3)n2)cn1`: “plasma cell count change” -73.7% (human, whole blood; 150 mg twice daily, day 7; reference: pre-dose baseline).
`CNCCOC12CC3(C)CC(C)(CC(Cn4ncc(-c5ccc(N6CCc7cccc(C(=O)Nc8nc9ccccc9s8)c7C6)nc5C(=O)O)c4C)(C3)C1)C2` — result for “PR interval change”: -4 ms (beagle dog, male, anaesthetised; intravenous bolus, 0.03 mg/kg, 75 min; reference: baseline).
`CC(C)(Sc1ccncc1-c1ccc(C#N)c2ccccc12)C(=O)O` — result for “fraction excreted in urine (0-24 h)”: 1.66% (human, urine; oral, 10 mg, added: febuxostat 20 mg).
`Cl.[2H]C([2H])([2H])CC(=O)c1cnc(NC(=O)C2CC2)cc1Nc1cccc(-c2ncn(C([2H])([2H])[2H])n2)c1OC` has a Ctrough of 54.2 ng/mL (human, plasma; oral, 30 mg twice daily, day 14, nonfasted, tablet, geometric mean).
`COc1cc2nccc(Oc3ccc(NC(=O)c4cc5c(n(-c6ccccc6)c4=O)CCCC5=O)nc3)c2cc1OC` — result for “grade ≥3 Anaemia patients”: 28.6% (relapsed or refractory AML; oral, 10 mg once daily).
Under “cumulative faecal excretion”, `CC(C(=O)NCC(=O)NCC(CNC(=O)CNC(=O)C(C)N1CCN(CC(=O)[O-])CCN(CC(=O)[O-])CCN(CC(=O)[O-])CC1)(CNC(=O)CNC(=O)C(C)N1CCN(CC(=O)[O-])CCN(CC(=O)[O-])CCN(CC(=O)[O-])CC1)CNC(=O)CNC(=O)C(C)N1CCN(CC(=O)[O-])CCN(CC(=O)[O-])CCN(CC(=O)[O-])CC1)N1CCN(CC(=O)[O-])CCN(CC(=O)[O-])CCN(CC(=O)[O-])CC1.[Gd+3].[Gd+3].[Gd+3].[Gd+3]` (centres unmarked) is recorded as 0.4% (ICP-MS; cynomolgus monkey; 58 days; reference: dose).
`COc1ccc(C[C@@H](C)[C@@H](C)Cc2ccc(OC)c(OC)c2)cc1OC` gave a half-life of 9.3 ± 0.072 h (beagle dog, male, plasma; oral, 1000 mg/kg/day, day 28, 28-day repeat-dose toxicity study).
`O=C(COc1ccc(Cl)cc1)NC12CC(c3nnc([C@H]4C[C@@H](OC(F)(F)F)C4)o3)(C1)C2`: “participants maximum mild TEAE” 100% (human both sexes; oral, 45 mg once daily, 14 days).
With `N[C@@H]1c2ccccc2OC12CCN(c1cnc3c(N4CCCc5ncccc54)n[nH]c3n1)CC2` the AUC(0-tau) was 4510 ng·h/mL (advanced metastatic solid tumour patients, plasma; oral, 50 mg once daily, cycle 1 day 1, geometric mean).
`CCC(C)n1ncn(-c2ccc(N3CCN(c4ccc(OCC5COC(Cn6cncn6)(c6ccc(Cl)cc6Cl)O5)cc4)CC3)cc2)c1=O` (centres unmarked) — result for “trough plasma concentration”: 117 ng/mL (human, plasma; oral, dose not given, day 14 predose, median).
Under “mean ACTH level”, `N#Cc1ccc2c(c1)[C@H]1CCCN(C(=O)c3ccc4[nH]cnc4c3)[C@H]1C2` is recorded as 6.3 pmol/L (human; 240 mg, day 7).
For `O=C([O-])CCCCC1(N(CC(=O)[O-])CC(=O)[O-])CN(CC(=O)[O-])CCN(CC(=O)[O-])C1.[Bi+3]`, the formation constant was 338 M⁻¹ (0.15 M NaClO4; 25 °C, protonation of Bi(L)H-1 complex).
With `c1ccc(-c2nc(N3CCC(c4ccccn4)C3)c3ccccc3n2)nc1` (centres unmarked) the blood concentration was 767 ng/mL (female Balb/c mice, blood; intravenous, 2 mg/kg, 4 h, mean, added: 1-aminobenzotriazole co-dosed).
`COc1ccc(NC(=O)N2CCCCN3[C@H](CO)[C@H](c4ccc(C#Cc5ccccc5)cc4)[C@@H]3C2)cc1` gave a Vss of 12 L/kg (CD-1 mouse; intravenous, dose not given).
For `CCCCCCCCCCCCCCCC(=O)N[C@@H](CCC(=O)NCCCC[C@@H]1NC(=O)[C@H]([C@@H](C)CC)NC(=O)[C@@H](NC(=O)[C@@H]2CCCN2C(=O)[C@H](Cc2ccccc2)NC(=O)[C@H](Cc2c[nH]cn2)NC(=O)[C@@H](NC(=O)[C@H](CC(=O)O)NC(=O)CC(C)C)[C@@H](C)O)CSSC[C@@H](C(=O)N[C@@H](CCCCN)C(N)=O)NC(=O)CNC(=O)[C@H](CCCCN)NC(=O)[C@H](CO)NC(=O)[C@H](CCCNC(=N)N)NC(=O)[C@@H]2CCCN2C(=O)[C@H](CCC(=O)O)NC(=O)[C@H](Cc2ccccc2)NC1=O)C(=O)O`, the CL/F was 19.3 ± 4.03 mL/min (healthy volunteers, plasma; subcutaneous, 45 mg single, lyophilised formulation).
`O=C1CCCN1Cc1ccc(NS(=O)(=O)c2cccc(Cl)c2O)cc1`: “DLS scattered light intensity” 448000 counts/s (colloidal aggregate formation, dynamic light scattering; 50 mM potassium phosphate buffer; 200 µM, pH 7.0, 1% DMSO; higher = more aggregation).
`O=C(O)c1cc(Br)ccc1F` has an HC50 of greater than 128 µg/mL (haemolysis; sheep erythrocytes; 1 h, pH 7.5).
For `CNC(=O)c1cc(Oc2ccc(NC(=O)Nc3ccc(Cl)c(C(F)(F)F)c3)c(F)c2)cc[n+]1[O-]`, “metabolite to parent AUC ratio” read 10.5% (wild-type mice, plasma; oral, molecular weight corrected, added: regorafenib single dose).

Repeated from above:
Under “cumulative faecal excretion”, `CC(C(=O)NCC(=O)NCC(CNC(=O)CNC(=O)C(C)N1CCN(CC(=O)[O-])CCN(CC(=O)[O-])CCN(CC(=O)[O-])CC1)(CNC(=O)CNC(=O)C(C)N1CCN(CC(=O)[O-])CCN(CC(=O)[O-])CCN(CC(=O)[O-])CC1)CNC(=O)CNC(=O)C(C)N1CCN(CC(=O)[O-])CCN(CC(=O)[O-])CCN(CC(=O)[O-])CC1)N1CCN(CC(=O)[O-])CCN(CC(=O)[O-])CCN(CC(=O)[O-])CC1.[Gd+3].[Gd+3].[Gd+3].[Gd+3]` (centres unmarked) is recorded as 0.4% (ICP-MS; cynomolgus monkey; 58 days; reference: dose).
For `O=C([O-])CCCCC1(N(CC(=O)[O-])CC(=O)[O-])CN(CC(=O)[O-])CCN(CC(=O)[O-])C1.[Bi+3]`, the formation constant was 338 M⁻¹ (0.15 M NaClO4; 25 °C, protonation of Bi(L)H-1 complex).
Under “treatment-emergent adverse events”, `O=C(Nc1nc2cccc(-c3ccc(CN4CCS(=O)(=O)CC4)cc3)n2n1)C1CC1` is recorded as 0% (item: hypertension; human rheumatoid arthritis patients; oral, 200 mg once daily, 4 weeks, regardless of relatedness).
`O=C(CCCN1CCC(O)(c2ccc(Cl)cc2)CC1)c1ccc(F)cc1` gave a QTc interval of 346 ± 0.3 ms (male Hartley guinea pig, anaesthetized; intravenous infusion, 0.1 mg/kg, 10 min infusion, post-infusion).
`C[C@H]1[C@H]2N(C(=O)CN(C)N2C(=O)NCc2ccccc2)[C@@H](Cc2ccc(OP(=O)(O)O)cc2)C(=O)N1Cc1cccc2cccnc12` has an AUC(0-24 h) of 3360 ng·h/mL (patients, plasma; intravenous infusion, 140 mg/m2 over 4 h, median).
For `CNC(=O)c1cc(Oc2ccc(NC(=O)Nc3ccc(Cl)c(C(F)(F)F)c3)c(F)c2)cc[n+]1[O-]`, “metabolite to parent AUC ratio” read 10.5% (wild-type mice, plasma; oral, molecular weight corrected, added: regorafenib single dose).
For `CC(C)NCC(O)c1ccc(NS(C)(=O)=O)cc1` (racemic), the QTc interval was 314 ± 0.4 ms (male Hartley guinea pig, anaesthetized; intravenous, 1 mg/kg, baseline before infusion).
